# Results gathered from unrelated publications.
# Every numbered part comes from another study and shows a few of its results, in no order.

# Set 1
# Target: Histone acetyltransferase KAT6A, winged helix 1, GST fusion (KAT6A, Homo sapiens, UniProt Q92794, residues 1-85)
# Method: protein binding microarray
# Molecule type: double-stranded DNA, one strand shown
# Sample: in vitro
# Concentration: not given
# Setting: 8-mer, flanks averaged, mean of 2 arrays, mostly near background
# Relative to: not given
# Reading: higher = stronger binding
# Construct (chain): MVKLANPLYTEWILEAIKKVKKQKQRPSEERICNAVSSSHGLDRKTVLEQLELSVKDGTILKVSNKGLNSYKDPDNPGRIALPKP
Oligonucleotide,E-score
TACTACGA,-0.13
GAACACCA,-0.228
CTAGTAAA,0.0695
GTGCGTGA,0.122
ACTATGCA,-0.167
AAAGCATA,-0.0228
AGGGGCTG,-0.275
ATGTCATA,-0.0453
ATCTTTGC,-0.016
AAACCTGG,-0.158
CATCTGGG,-0.27
ATGTGATG,-0.167
ACCCCTTG,-0.187
CGACGTGA,0.0478
AAGCACTC,0.017
CTACCCCA,-0.167
GACTTGAC,-0.212
AGCTTCAA,-0.207
CCTAACTC,-0.123

# Set 2
# Target: ATP-dependent RNA helicase DDX3X, helicase core (DDX3X, Homo sapiens, UniProt O00571, residues 132-607)
# Chain of UniProt O00571 (132-607, looked up): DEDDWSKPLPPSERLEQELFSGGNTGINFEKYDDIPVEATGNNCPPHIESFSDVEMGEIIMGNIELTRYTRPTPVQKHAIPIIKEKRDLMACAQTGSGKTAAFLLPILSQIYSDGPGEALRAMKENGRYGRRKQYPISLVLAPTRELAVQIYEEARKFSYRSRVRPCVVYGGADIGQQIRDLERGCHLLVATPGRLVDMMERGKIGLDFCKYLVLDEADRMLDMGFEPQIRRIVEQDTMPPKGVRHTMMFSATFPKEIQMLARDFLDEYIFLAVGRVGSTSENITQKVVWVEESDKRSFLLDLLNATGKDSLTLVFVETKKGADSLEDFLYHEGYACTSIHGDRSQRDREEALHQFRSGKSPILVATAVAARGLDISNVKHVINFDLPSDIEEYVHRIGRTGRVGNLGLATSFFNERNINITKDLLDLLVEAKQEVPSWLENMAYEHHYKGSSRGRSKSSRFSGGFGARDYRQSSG
# Method: RNA Bind-n-Seq
# Molecule type: RNA
# Sample: in vitro
# Concentration: not given
# Setting: 4-mer, random 30-nt RNA, single round
# Together with: RocA, ADP, phosphate
# Relative to: input library
# Reading: higher = stronger binding
Oligonucleotide,4-mer enrichment [fold]
CGCU,0.637
UCAA,0.754
UUCA,0.709
GGAU,1.05
CCAU,0.739
GAUU,0.926
AUGU,0.942
UACA,0.729
UUAC,0.725
ACCG,0.76
UCGG,1.07
AGUA,1.34
CCCC,1.04
AAGG,1.46
GGGU,1.2
GGGG,1.66
AUCC,0.704
GACC,0.718
CGGG,1.12

# Set 3
# Target: Sal-like protein 4, full length isoform B (SALL4, Homo sapiens, UniProt Q9UJQ4-2, residues 1-616)
# Method: universal PBM
# Molecule type: double-stranded DNA, one strand shown
# Sample: in vitro
# Concentration: not given
# Setting: 8-mer, flanks averaged, mean of replicates
# Reading: higher = stronger binding
Oligonucleotide,E-score
AGATCGCT,-0.027
ATTGTAAC,0.212
GAAATATC,0.217
CTACTGGA,-0.226
TACTCAAA,0.144
AGTGTGCA,0.0976
ACTAGACC,-0.00888
ATTAGCGA,0.179
ACAAGCTG,-0.166
CAGGACAC,-0.13
GAGTCCAA,-0.124
CACCAGCA,-0.1
CGGTATTA,0.131
GCCTAAAC,-0.0596
GACGATCC,-0.0851
CCGTCCCA,-0.0898
GTATCCCA,-0.0697
ATACACGG,0.2
CGGGGCGA,-0.293
CGCGCAGA,-0.134
GTCATCTA,0.111
CGTAACGC,-0.145
ACGCGCTG,-0.319

# Set 4
# Target: RNA binding protein fox-1 homolog 2, RRM domain, GST-SBP tag (RBFOX2, Homo sapiens, UniProt O43251-10, residues 100-194)
# Method: RNA Bind-n-Seq
# Molecule type: RNA
# Sample: in vitro
# Concentration: 365 nM
# Setting: natural RNA segment, single round, ends assumed
# Relative to: no-protein control
# Reading: higher = stronger binding
# Residues (chain): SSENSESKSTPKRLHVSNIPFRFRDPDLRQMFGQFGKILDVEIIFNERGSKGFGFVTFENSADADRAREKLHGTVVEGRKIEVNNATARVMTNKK
Oligonucleotide,RBNS enrichment (R)
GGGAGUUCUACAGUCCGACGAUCGGCCAGCCUGGUCUUGAACUCUUGAACUCCUGACCUCAGGUAAUCCACCCACCUCAGACUCCCAAAGUGCUGGGAUUACAGGCGUGAGCCACCAUACCCGGCCAAAAAUUUGGAAUUCUCGGGUGCCAA,0.175
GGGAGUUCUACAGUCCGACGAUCGGUUUGGAGAAACUGGAGAAAUCACCCUUUUAAGGAAGAAACACUGGAAAUUUCUGCUAACACCAAGAUAUUUAAGAGUGUACAUAGUAGGUGCUCAACAAAUUUAUUGAUGGAAUUCUCGGGUGCCAA,0.337
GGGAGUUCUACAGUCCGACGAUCUGAUAAUUUGGGGUGUUUGGCUGUCAGCUAGGCUCAUGAAGUCCACUGUACUGUAAUGAUGGUAUUUACCUCUGUGCUAUUUUAAUUACCCUCGCGUCUGUGGAACUGCUUGGAAUUCUCGGGUGCCAA,0.497
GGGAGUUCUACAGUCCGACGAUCUCUGUUUGUCUCGUGGGGGGAGGUGGACAGUCCUGCGGAAAUGUGUCUUGUCUCCAUUUGGAUAAAAGGAACCAACCAACAAACAAUGCCAUCACUGGAAUUUCCCACCGUGGAAUUCUCGGGUGCCAA,1.93
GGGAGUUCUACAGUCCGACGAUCACAGGCUGGAGCAGCCCAGGAGAUGGGCCUAAAAUGUUCUGGAUCCCUUGGGUCCUAGUGUUAUGUUCCAGUCUGCCCACCUGUGCUCAGGAUGCAGCCCUGGGAUCCAGUGGAAUUCUCGGGUGCCAA,0.383
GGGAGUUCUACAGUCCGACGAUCGGCUAAACUGUGGGUGGCAGUGGGCAUCCCCAUCACCCUUAGCAAGGUGUGGUUCUCAGUGCCUGUCAUUGAUGUGUGUUCCCGUGCCCAGGCUGUCUCAGUGUCAUCAUUGGAAUUCUCGGGUGCCAA,0.235
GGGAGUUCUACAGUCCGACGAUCACUCAAGAUUAGUUUAAUUAAACUAACGAAUAGUUUUGGACACUUUAAAAGAGCUCUAAAUUUGCUUGUAUAUAAAGGCUUAAUAUGAGUUUUACUUGUUAGGGUCAAGGUGGAAUUCUCGGGUGCCAA,3.58
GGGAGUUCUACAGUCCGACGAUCUGCUUAAACAUCUUAGGAAUUUUAAUAUAAAAAGAAAAGGCUUUCCCAUUUGCACUCUAUUUCAAAGAAUUGUUAUUGUUCCCUUUCGUUAAAAUCAGUGUUGGGAAUUAUGGAAUUCUCGGGUGCCAA,0.608
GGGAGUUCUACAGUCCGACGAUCUGUGUUUUUCUUCUUGUUGUUUUAGAACUUUUUCAAAAACAAACAAGACAAACAAACAUAAAAAUAGGCCUUCUUUAGAUUUAUAGCAGUGACUUUUACACACUCUCACAUGGAAUUCUCGGGUGCCAA,0.347
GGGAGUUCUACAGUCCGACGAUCCCCACUGAGUUCAGGUCAUUUGAGUUAAAACAAAAAAAAAAAUCCUCUGCUGCACAUUUUGUUUAAGUGUUAACUGUUUCUGCUAUUAAUGUUGGAAACACAAAUAGUGCUGGAAUUCUCGGGUGCCAA,0.776
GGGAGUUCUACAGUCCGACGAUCCGGCUUAAGCCAGCCCCCGACUGGCCUGGCCACACUGCUCUCCAGUAGCACAGAUGUCUGCUCCUCCUCUUGAACUUGGGUGGGAAACCCCACCCAAAAGCCCCCUUUGUUGGAAUUCUCGGGUGCCAA,0.408
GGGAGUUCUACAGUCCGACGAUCGAUUAAGCCACACCUUUCCAUUUUUCAAUGCUGCAUAUUUAAUCUGCAAAAAAAAGUUAAGCCAUAACAGCCUUUUUAUAUUUUAAUUUGUCACCUUUGCAUUGCAGAAUUGGAAUUCUCGGGUGCCAA,0.999

# Set 5
# Target: Interferon regulatory factor 7, full length, phosphomimetic (IRF7, Homo sapiens, UniProt Q92985, residues 1-503, S471D/S472D/S475D/S476D/S477D/S483D/S484D/S487D)
# Method: protein-binding microarray
# Molecule type: double-stranded DNA, one strand shown
# Sample: in vitro
# Concentration: 2200 nM top
# Setting: 60-bp whole probe
# Together with: salmon DNA 0.4 mg/ml
# Relative to: random background probes
# Reading: higher = stronger binding
# Shared flanks, not repeated: GCCTAGCAC … GTCTTGATTCGCTTGACGCTGCTG
# Construct (chain): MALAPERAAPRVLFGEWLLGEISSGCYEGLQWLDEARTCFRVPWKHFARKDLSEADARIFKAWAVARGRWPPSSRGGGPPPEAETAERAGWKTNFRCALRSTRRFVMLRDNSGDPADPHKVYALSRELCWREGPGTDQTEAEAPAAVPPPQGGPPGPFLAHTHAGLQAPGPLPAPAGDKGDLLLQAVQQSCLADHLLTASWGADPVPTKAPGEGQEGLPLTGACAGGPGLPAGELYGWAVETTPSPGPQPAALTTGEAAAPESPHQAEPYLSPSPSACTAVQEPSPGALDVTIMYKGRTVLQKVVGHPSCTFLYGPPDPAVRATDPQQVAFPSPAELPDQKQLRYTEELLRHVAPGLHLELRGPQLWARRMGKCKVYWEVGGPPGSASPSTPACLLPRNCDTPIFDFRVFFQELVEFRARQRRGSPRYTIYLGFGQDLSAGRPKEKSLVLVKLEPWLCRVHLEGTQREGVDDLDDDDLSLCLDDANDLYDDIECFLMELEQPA
Oligonucleotide,fitted relative affinity [z-score]
TTAGATATCAGACTGGACTAGTGCTAG,-0.332
TCAATTATTGCTTCCTCACTGTGCTAG,1.4
TTAGAACTGGGGACAGGATTAGTGCTA,-0.453
TTAGATTCCAGTGTCGATTAGTGCTAG,0.402
TTAGGTATCCTAATCCTTTAGTGCTAG,0.484
TTAGATATCAGACTGTATTAGTGCTAG,-0.138
GACGGACTGTTTCTCCTGACGTGCTAG,1.08
TTAGGTCTCCTACTGCGTTAGTGCTAG,0.391
GACGGACTGGACTATCGGAACGTGCTA,-0.433
TTAGGTTTCGGGTATGGGTTAGTGCTA,5.25
CCAGTGCTTGCTCCCCTGCAGTGCTAG,-0.346
TTAGGTCTCGATATCGGTTAGTGCTAG,0.745
TCATATTTATAAATTATACTGTGCTAG,0.401
GACGTACTGGGGTTTCGAGACGTGCTA,1.28
TTAGATCTCAATATCGATTAGTGCTAG,-0.0678
GACGGTTTCGGGTAGCGGGACGTGCTA,6.35
TTAGCTATCCTTATCCTTTAGTGCTAG,1.07
TCCCAATTCTCTTTTCACTTGTGCTAG,2.49
GGCGGTTTCGACTTTCGGGACGTGCTA,8.4
TTAGGCATCCTTCTCCTTTAGTGCTAG,0.418
CTGGACCCACTTCCAAATGGGTGCTAG,-0.204

# Some of these lines once more (set 3):
Oligonucleotide,E-score
CAGGACAC,-0.13
ACGCGCTG,-0.319
GTATCCCA,-0.0697
GACGATCC,-0.0851
CTACTGGA,-0.226
CCGTCCCA,-0.0898
CGGTATTA,0.131
AGATCGCT,-0.027
ACAAGCTG,-0.166
